Published values from different studies.
“And” joins repeats or separate records; there may be more than shown. ± gives the spread as reported.

CC(C)[C@H](NC(=O)CNC(=O)[C@H](CCC(N)=O)NC(=O)[C@H](C)N)C(=O)O — subjects with unrelated AE (healthy male volunteers; intravenous, 90 mg/kg/h, 2 h, together with: LPS 2 ng/kg): 37.5%
C=Cc1cc(O)cc2nc(-c3ccc(O)c([76Br])c3)oc12 — tissue uptake (female C57BL/6 mouse, uterus; 3 h, high dose): 0.09 ± 0.02 %ID/g
O=C(NC1CCCCC1)Oc1cccc(-c2cccc(CO)c2)c1 — log hydrolysis rate constant (rat plasma): -1.81
[3H]c1sc(C)nc1C=C(C)C1CC2C(CCCC(C)C(O)C(C)C(=O)C(C)(C)C(O)CC(=O)O1)N2CCO (stereo not shown) — radioactivity in tissue (whole-body autoradiography; CD2F1 mice, intestine contents; intravenous, 2.2 nmol/kg, 2 h): 49.9 ± 29 µg-eq/g
CC(C)[C@@H]1NC(=O)[C@H](Cc2ccccc2)NC(=O)[C@H](Cc2ccc(O)cc2)NC(=O)CCSSC[C@@H](C(=O)N2CCC[C@H]2C(=O)N[C@H](CCCNC(=N)N)C(=O)NCC(N)=O)NC(=O)[C@H](CCC(N)=O)NC1=O — body weight (Wistar rat; intravenous, 100 µg/kg single dose, 72 h): 226 ± 6.1 g
COc1cc(NC(=O)C(=O)c2c(C)n(Cc3ccc(Cl)cc3)c3ccc(C)cc23)ccn1 — t1/2 (cynomolgus monkey, male, plasma; intravenous, 1 mg/kg): 13.7 h and 14.5 h and 12.6 h and 24.9 h and 11.8 h and 19.5 h
C/C=C/C=C/C/C=C/CCCCCCCc1cccc(O)c1O — tissue concentration (female Kunming mice, tumour-bearing, tumor; intravenous, 10 mg/kg, 0.083 h): 35200 ± 3290 ng/g
CC(C)[C@H](NC(=O)CNC(=O)[C@H](CCC(N)=O)NC(=O)[C@H](C)N)C(=O)O — unrelated adverse events (human; single dose, 3 mg/kg, unlikely related or unrelated): 33.3%
CCCCCCCCCCCCC(=O)O.O=C1CCCC2C3CCCN4CCCC(CN12)C34 (stereo not shown) — entropic term −TΔS of aggregation (electrical conductivity; water; 298.15 K): -32.1 kJ/mol
CSCC[C@@H]1NC(=O)[C@@H]2CSSC[C@H](NC(=O)[C@H](CO)NC(=O)[C@H](C)N)C(=O)N[C@@H](CCCNC(=N)N)C(=O)N[C@@H]([C@@H](C)O)C(=O)N3CCC[C@H]3C(=O)N[C@@H](CCCCN)C(=O)N[C@@H](CC(=O)O)C(=O)N[C@H]3CSSC[C@H](NC(=O)[C@H](CCCCN)NC(=O)[C@H](CCCNC(=N)N)NC(=O)[C@H](CC(N)=O)NC1=O)C(=O)N[C@@H](CCCCN)C(=O)N[C@H]1CSSC[C@H](NC(=O)[C@@H]4CCCN4C(=O)[C@H](CC(=O)O)NC(=O)[C@H](C)NC3=O)C(=O)N[C@@H](C)C(=O)N[C@@H](CCCCN)C(=O)N[C@@H](CCC(=O)O)C(=O)N[C@@H]([C@@H](C)O)C(=O)NCC(=O)N[C@@H](CSSC[C@@H](C(N)=O)NC(=O)[C@H](CCCNC(=N)N)NC(=O)[C@H](CC(N)=O)NC1=O)C(=O)N1CCC[C@H]1C(=O)N[C@@H](Cc1ccc(O)cc1)C(=O)NCC(=O)N[C@@H](CCCCN)C(=O)N2 — AST (DA rat, pristane-induced arthritis, serum; subcutaneous, 0.1 mg/kg every other day, end of 21-day trial): 112 U/L
CC(C)(O)c1ccccc1CC[C@H](c1cccc(/C=C/c2ccc3ccc(Cl)cc3n2)c1)[S+]([O-])CC1(CC(=O)O)CC1 (stereo partly shown) — percent metabolized (human liver microsomes; 1 µM, 30 min, 0.5 mg/mL protein): 18.5%
C[C@]12CC[C@H](O)CC1CCC1C2[C@H](O)C(=O)[C@]2(C)[C@@H](c3ccc(=O)oc3)CC[C@]12O (stereo partly shown) — sulfation rate (substrate; pooled human liver cytosol; concentration not given, pH 7.4): 58.7 pmol/min/mg protein
CC(COC(=O)c1ccccc1)OC(=O)C(N)C(C)C (mixture of isomers) — half-life (isotonic buffer; pH 1.2, 37 °C): > 1800 min
CC(C)C[C@H](NC(=O)[C@H](CCCCN)NC(=O)[C@H](CCC(=O)O)NC(=O)[C@H](C)NC(=O)[C@@H](NC(=O)[C@H](CCCCN)NC(=O)[C@H](CC(=O)O)NC(=O)[C@H](Cc1ccc(O)cc1)NC(=O)[C@H](Cc1ccccc1)NC(=O)[C@H](C)NC(=O)[C@H](CCCCN)NC(=O)[C@H](CC(C)C)NC(=O)[C@H](Cc1c[nH]c2ccccc12)NC(=O)[C@@H](N)CC(=O)O)C(C)C)C(=O)N[C@@H](CCCCN)C(=O)N[C@@H](CCC(=O)O)C(=O)N[C@@H](C)C(=O)N[C@@H](Cc1ccccc1)C(=O)N1CCC[C@H]1C(=O)N[C@@H](CC(=O)O)C(=O)N[C@@H](Cc1c[nH]c2ccccc12)C(=O)N[C@@H](C)C(=O)N[C@@H](CCCCN)C(=O)N[C@@H](C)C(=O)N[C@@H](C)C(=O)N[C@@H](Cc1ccc(O)cc1)C(=O)N[C@@H](CC(=O)O)C(=O)N[C@@H](CCCCN)C(=O)N[C@@H](C)C(=O)N[C@@H](C)C(=O)N[C@@H](CCC(=O)O)C(=O)N[C@@H](CCCCN)C(=O)N[C@@H](C)C(=O)N[C@@H](CCCCN)C(=O)N[C@@H](CCC(=O)O)C(=O)N[C@@H](C)C(=O)N[C@@H](C)C(=O)O — half-life (cynomolgus monkey male, plasma; intravenous infusion, 25 mg/kg, day 1, 30 min infusion): 222 min
CC[C@@H]1C[C@]1(NC(=O)[C@@H]1C[C@@]2(CN1C(=O)[C@@H](NC(=O)[C@@H](NC(=O)[C@@H]1CCCCN1C(C)C)C1CCCCC1)C(C)(C)C)C(C)(C)C21CCC1)C(=O)NS(=O)(=O)N1CCCC1 — subjects with adverse event (refers to: abdominal pain; healthy human; oral, 10 mg, together with: ritonavir 100 mg): 0%
CC[C@H](C)C(=O)N1CCC(NC(=O)Nc2ccc(OC(F)(F)F)c(F)c2)CC1 — subjects with laryngitis TEAE (healthy volunteers; oral, 16 mg single dose): 0%
C[C@@H](O)[C@H](NC(=O)[C@H](CCCCN)NC(=O)[C@H](Cc1c[nH]c2ccccc12)NC(=O)CN)C(=O)N[C@@H](CCCNC(=N)N)C(=O)NC(C)(C)C(=O)N[C@@H](CCCNC(=N)N)C(=O)NC(C)(C)C(=O)N[C@H](C(=O)N[C@@H](CO)C(=O)N[C@@H](Cc1c[nH]cn1)C(=O)N[C@@H](Cc1ccc(O)cc1)C(=O)NCC(=O)O)[C@@H](C)O — haematocrit (C57BL/6 mouse, blood; intravenous, 50 mg/kg, 10 h): 35 to 45%
COC(=O)C[C@](O)(CCCC(C)(C)OC(C)=O)C(=O)O[C@@H]1C(OC)=C[C@]23CCCN2CCc2cc4c(cc2[C@H]13)OCO4 — tissue concentration (CD1 mouse, large intestine; subcutaneous, 1 mg/kg, 0.5 h): 485 ng/mL
Cc1ccccc1CN1CCC(O)(c2ccc(Cl)c(C(F)(F)F)c2)CC1 — elimination half-life (female BALB/c mouse, serum; intraperitoneal, 50 mg/kg): 192 min
CC[C@H](C)[C@H](NC(=O)CNC(=O)[C@H](CC(=O)O)NC(=O)[C@H](CCCNC(=N)N)NC(=O)[C@@H](NC(=O)[C@H](CC(N)=O)NC(=O)[C@H](CCC(N)=O)NC(=O)CNC(=O)[C@@H](NC(=O)[C@H](CCCCN)NC(=O)[C@H](CCC(=O)O)NC(=O)[C@@H](NC(=O)[C@H](CCCCN)NC(=O)[C@H](CCCCN)NC(=O)[C@H](Cc1ccccc1)NC(=O)[C@H](CC(C)C)NC(=O)[C@H](CCCCN)NC(=O)[C@H](Cc1c[nH]c2ccccc12)NC(=O)[C@@H](N)CCCCN)[C@@H](C)CC)C(C)C)[C@@H](C)CC)C(=O)N[C@H](C(=O)N[C@@H](CCCCN)C(=O)N[C@@H](C)C(=O)NCC(=O)N1CCC[C@H]1C(=O)N[C@@H](C)C(=O)N[C@H](C(=O)N[C@@H](C)C(=O)N[C@H](C(=O)N[C@H](C(=O)NCC(=O)N[C@@H](CCC(N)=O)C(=O)N[C@@H](C)C(=O)N[C@H](C(=O)N[C@@H](CCC(N)=O)C(=O)N[C@H](C(=O)N[C@@H](C)C(=O)N[C@@H](CCCCN)C(N)=O)[C@@H](C)CC)[C@@H](C)O)C(C)C)C(C)C)C(C)C)[C@@H](C)CC — helicity (circular dichroism; POPC vesicles 5 mM; 20 µM, fully membrane bound): 63%
[2H]C([2H])([2H])C([2H])([2H])C([2H])([2H])OC(C(=O)OC1CCNCC1)(c1ccccc1)c1ccccc1 — adverse events (refers to: vomiting; healthy Japanese male; oral, 10 mg, 16 days, multiple ascending dose): 14.3%
[Cl-].[Cl][Ru-4]123([n+]4ccccc4-c4cccc([n+]41)-c1cccc[n+]12)[n+]1ccc(-c2ccccc2)c2ccc4c(-c5ccccc5)cc[n+]3c4c21 — toxicity (zebrafish embryos; 20 µM): not toxic

Some of these lines once more:
CC(C)C[C@H](NC(=O)[C@H](CCCCN)NC(=O)[C@H](CCC(=O)O)NC(=O)[C@H](C)NC(=O)[C@@H](NC(=O)[C@H](CCCCN)NC(=O)[C@H](CC(=O)O)NC(=O)[C@H](Cc1ccc(O)cc1)NC(=O)[C@H](Cc1ccccc1)NC(=O)[C@H](C)NC(=O)[C@H](CCCCN)NC(=O)[C@H](CC(C)C)NC(=O)[C@H](Cc1c[nH]c2ccccc12)NC(=O)[C@@H](N)CC(=O)O)C(C)C)C(=O)N[C@@H](CCCCN)C(=O)N[C@@H](CCC(=O)O)C(=O)N[C@@H](C)C(=O)N[C@@H](Cc1ccccc1)C(=O)N1CCC[C@H]1C(=O)N[C@@H](CC(=O)O)C(=O)N[C@@H](Cc1c[nH]c2ccccc12)C(=O)N[C@@H](C)C(=O)N[C@@H](CCCCN)C(=O)N[C@@H](C)C(=O)N[C@@H](C)C(=O)N[C@@H](Cc1ccc(O)cc1)C(=O)N[C@@H](CC(=O)O)C(=O)N[C@@H](CCCCN)C(=O)N[C@@H](C)C(=O)N[C@@H](C)C(=O)N[C@@H](CCC(=O)O)C(=O)N[C@@H](CCCCN)C(=O)N[C@@H](C)C(=O)N[C@@H](CCCCN)C(=O)N[C@@H](CCC(=O)O)C(=O)N[C@@H](C)C(=O)N[C@@H](C)C(=O)O — half-life (cynomolgus monkey male, plasma; intravenous infusion, 25 mg/kg, day 1, 30 min infusion): 222 min
CC[C@@H]1C[C@]1(NC(=O)[C@@H]1C[C@@]2(CN1C(=O)[C@@H](NC(=O)[C@@H](NC(=O)[C@@H]1CCCCN1C(C)C)C1CCCCC1)C(C)(C)C)C(C)(C)C21CCC1)C(=O)NS(=O)(=O)N1CCCC1 — subjects with adverse event (refers to: abdominal pain; healthy human; oral, 10 mg, together with: ritonavir 100 mg): 0%
